Experimental data collected from several papers.
A part holds a random share of what one study measured.
UniProt Q9UIK4, sequence (whole entry, looked up): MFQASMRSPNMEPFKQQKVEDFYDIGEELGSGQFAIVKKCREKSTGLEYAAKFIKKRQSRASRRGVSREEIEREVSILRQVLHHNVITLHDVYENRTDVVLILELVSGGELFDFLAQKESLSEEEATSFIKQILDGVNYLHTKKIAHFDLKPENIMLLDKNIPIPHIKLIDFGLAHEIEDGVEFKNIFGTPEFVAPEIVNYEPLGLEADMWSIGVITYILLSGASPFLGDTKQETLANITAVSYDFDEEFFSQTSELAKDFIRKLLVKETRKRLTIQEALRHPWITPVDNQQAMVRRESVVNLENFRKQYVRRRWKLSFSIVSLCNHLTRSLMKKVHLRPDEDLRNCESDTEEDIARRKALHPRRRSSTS
UniProt P23458, sequence (whole entry, looked up): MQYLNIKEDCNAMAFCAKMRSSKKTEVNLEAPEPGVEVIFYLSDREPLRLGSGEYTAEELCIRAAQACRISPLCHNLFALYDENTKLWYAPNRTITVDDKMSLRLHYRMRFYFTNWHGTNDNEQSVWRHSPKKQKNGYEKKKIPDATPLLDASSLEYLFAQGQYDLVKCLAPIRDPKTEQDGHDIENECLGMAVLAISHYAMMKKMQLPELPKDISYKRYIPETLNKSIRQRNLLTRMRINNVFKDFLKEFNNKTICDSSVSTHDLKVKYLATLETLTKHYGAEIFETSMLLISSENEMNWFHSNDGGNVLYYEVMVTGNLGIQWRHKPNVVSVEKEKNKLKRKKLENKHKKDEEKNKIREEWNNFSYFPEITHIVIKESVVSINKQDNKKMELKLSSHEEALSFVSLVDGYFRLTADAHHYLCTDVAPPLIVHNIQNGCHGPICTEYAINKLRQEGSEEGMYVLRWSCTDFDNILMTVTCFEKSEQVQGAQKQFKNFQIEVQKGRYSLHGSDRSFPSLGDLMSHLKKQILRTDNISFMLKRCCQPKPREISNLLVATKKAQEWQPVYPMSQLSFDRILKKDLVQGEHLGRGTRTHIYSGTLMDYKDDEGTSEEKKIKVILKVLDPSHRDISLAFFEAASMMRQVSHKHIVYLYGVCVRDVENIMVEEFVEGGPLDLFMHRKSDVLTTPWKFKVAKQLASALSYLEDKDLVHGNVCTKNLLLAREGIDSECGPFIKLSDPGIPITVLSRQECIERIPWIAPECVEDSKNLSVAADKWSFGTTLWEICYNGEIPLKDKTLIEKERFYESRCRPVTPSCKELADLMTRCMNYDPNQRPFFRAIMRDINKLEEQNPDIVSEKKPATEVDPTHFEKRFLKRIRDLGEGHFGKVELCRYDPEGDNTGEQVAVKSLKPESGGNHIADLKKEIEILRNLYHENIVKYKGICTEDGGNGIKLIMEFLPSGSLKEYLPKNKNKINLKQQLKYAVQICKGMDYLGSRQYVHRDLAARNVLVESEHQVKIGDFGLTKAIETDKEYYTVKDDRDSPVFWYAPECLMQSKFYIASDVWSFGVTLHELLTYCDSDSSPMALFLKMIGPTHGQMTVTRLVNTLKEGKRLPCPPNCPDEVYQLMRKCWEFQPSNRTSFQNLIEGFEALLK
UniProt P51617, sequence (whole entry, looked up): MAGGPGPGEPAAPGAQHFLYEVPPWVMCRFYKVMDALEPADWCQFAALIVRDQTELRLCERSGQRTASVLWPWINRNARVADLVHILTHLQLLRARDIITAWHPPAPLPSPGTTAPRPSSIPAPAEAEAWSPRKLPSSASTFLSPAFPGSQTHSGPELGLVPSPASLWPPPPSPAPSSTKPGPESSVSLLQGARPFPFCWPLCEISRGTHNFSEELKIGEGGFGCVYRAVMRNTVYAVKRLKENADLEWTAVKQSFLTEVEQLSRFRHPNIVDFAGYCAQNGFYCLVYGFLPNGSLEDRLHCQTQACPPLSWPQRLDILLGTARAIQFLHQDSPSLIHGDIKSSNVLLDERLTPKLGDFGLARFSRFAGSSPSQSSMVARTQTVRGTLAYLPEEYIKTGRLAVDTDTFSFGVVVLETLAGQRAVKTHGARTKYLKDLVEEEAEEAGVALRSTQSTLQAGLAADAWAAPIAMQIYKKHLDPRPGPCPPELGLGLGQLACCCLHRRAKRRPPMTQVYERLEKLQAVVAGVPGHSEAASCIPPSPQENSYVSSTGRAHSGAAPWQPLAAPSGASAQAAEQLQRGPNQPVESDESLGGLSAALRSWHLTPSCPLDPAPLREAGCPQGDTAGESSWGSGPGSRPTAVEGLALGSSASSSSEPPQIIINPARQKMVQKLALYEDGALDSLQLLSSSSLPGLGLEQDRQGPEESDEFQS
UniProt P78368, sequence (whole entry, looked up): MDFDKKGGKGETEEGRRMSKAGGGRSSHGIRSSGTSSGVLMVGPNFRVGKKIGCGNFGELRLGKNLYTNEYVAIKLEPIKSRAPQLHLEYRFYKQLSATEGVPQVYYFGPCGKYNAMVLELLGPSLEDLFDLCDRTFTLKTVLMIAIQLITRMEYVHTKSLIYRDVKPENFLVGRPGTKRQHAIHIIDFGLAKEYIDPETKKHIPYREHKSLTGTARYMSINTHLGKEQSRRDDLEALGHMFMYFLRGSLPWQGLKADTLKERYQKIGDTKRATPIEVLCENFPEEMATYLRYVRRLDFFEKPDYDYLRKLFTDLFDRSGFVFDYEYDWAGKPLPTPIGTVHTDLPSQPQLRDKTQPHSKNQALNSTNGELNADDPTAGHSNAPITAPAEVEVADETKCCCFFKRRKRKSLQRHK
UniProt Q86YV6, sequence (whole entry, looked up): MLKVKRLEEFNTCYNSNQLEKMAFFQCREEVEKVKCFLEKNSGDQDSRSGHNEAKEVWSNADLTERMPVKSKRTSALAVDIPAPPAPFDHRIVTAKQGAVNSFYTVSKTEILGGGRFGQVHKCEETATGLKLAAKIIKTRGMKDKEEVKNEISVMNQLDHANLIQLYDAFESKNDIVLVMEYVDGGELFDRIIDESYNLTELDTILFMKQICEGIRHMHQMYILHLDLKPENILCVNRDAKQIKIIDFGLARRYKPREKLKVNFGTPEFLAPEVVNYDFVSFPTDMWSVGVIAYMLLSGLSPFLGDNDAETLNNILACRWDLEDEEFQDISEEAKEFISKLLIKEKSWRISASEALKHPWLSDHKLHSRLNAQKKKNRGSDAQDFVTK
UniProt Q52WX2, sequence (whole entry, looked up): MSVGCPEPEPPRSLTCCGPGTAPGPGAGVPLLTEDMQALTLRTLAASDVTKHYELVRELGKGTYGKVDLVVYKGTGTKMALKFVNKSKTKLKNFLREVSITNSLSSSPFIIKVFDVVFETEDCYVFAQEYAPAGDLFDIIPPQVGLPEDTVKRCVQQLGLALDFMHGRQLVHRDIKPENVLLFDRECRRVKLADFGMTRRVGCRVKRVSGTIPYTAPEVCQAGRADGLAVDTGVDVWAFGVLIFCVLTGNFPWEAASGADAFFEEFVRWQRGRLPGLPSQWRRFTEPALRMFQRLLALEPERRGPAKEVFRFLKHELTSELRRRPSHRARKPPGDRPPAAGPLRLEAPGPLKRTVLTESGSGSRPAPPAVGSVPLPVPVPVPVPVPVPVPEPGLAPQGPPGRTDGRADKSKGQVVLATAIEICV
UniProt Q9H0K1, sequence (whole entry, looked up): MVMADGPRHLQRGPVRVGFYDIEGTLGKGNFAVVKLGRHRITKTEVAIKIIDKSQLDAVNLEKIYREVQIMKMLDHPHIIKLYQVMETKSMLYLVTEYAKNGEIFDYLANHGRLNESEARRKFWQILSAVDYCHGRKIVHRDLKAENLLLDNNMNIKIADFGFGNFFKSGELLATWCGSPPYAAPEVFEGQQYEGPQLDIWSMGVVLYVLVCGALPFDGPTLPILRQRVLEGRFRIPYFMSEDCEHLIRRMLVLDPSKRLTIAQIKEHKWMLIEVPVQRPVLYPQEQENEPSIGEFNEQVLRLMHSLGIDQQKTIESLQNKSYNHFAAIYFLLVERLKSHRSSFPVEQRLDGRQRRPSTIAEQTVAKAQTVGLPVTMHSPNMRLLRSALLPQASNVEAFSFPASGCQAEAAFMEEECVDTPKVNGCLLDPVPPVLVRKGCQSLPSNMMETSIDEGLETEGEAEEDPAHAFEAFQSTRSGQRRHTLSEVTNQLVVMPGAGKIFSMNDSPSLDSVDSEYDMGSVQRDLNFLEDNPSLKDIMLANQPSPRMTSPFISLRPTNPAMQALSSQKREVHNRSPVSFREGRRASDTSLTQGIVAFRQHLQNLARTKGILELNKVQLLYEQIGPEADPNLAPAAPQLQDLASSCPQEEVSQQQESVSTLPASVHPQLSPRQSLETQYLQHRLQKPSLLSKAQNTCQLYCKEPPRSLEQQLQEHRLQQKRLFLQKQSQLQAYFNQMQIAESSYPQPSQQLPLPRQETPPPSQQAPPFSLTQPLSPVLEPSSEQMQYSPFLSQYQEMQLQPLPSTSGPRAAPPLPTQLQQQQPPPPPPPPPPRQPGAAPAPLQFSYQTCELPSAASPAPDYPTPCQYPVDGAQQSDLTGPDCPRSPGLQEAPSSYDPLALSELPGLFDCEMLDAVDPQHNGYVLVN

Block 1
Target: Calcium/calmodulin-dependent protein kinase type II subunit gamma (CAMK2G, Homo sapiens, UniProt Q13555)
UniProt Q13555, sequence (whole entry, looked up): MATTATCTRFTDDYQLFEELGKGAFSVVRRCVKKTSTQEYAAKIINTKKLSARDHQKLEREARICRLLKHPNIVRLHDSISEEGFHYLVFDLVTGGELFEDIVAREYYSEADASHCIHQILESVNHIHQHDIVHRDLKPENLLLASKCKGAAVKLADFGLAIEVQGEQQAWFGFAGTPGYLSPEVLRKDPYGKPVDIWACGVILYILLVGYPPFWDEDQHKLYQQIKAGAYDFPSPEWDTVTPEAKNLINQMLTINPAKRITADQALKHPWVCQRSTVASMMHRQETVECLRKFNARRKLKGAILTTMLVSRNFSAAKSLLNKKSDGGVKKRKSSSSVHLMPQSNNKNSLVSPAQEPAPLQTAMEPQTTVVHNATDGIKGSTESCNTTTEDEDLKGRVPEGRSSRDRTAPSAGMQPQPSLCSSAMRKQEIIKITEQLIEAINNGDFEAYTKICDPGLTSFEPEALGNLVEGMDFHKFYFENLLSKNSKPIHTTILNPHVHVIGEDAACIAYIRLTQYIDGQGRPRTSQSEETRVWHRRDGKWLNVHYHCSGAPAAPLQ
Observed: enzyme activity
Action: inhibitor
Tested at: 0.5 µM
Reference: control
SMILES	remaining activity [%]
CCOC(=O)c1c(C)[nH]c(/C=C2\C(=O)Nc3ccccc32)c1C	97.6
Cc1cccc(-c2[nH]c(C(C)(C)C)nc2-c2ccc3c(c2)OCO3)n1	85.5
O=C1NC(=O)C(c2cn(CCCO)c3ncccc23)=C1c1cnccn1	90.6
COc1ccc(OC)c2c(=S)c3ccccc3[nH]c12	95.8
Nc1ncnc2n[nH]c(Nc3ccc(F)cc3)c12	119
Cn1c2ccccc2c2c3c(c4c5ccccc5n(CCC#N)c4c21)CNC3=O	21.9
Cn1sc(=O)n(Cc2ccccc2)c1=O	90.1
O=C(CCCc1ccc(-c2ccccc2F)cc1)Nc1ccc(O)cc1	109
O=C1NC(=O)C(c2cn(CCCn3ccnc3)c3ccccc23)=C1Nc1ccccc1	90.9
O=c1c2ccccc2[nH]c(=S)n1CCN1CCC(=C(c2ccc(F)cc2)c2ccc(F)cc2)CC1	97.9
CO[C@H]1C[C@@H]2CC[C@@H](C)[C@@](O)(O2)C(=O)C(=O)N2CCCC[C@H]2C(=O)O[C@H]([C@H](C)C[C@@H]2CC[C@@H](O)[C@H](OC)C2)CC(=O)[C@H](C)/C=C(\C)[C@@H](O)[C@@H](OC)C(=O)[C@H](C)C[C@H](C)/C=C/C=C/C=C/1C	101
Oc1ccc(-c2nc(-c3ccncc3)c(-c3ccc(F)cc3)[nH]2)cc1	101
OCC(O)CCON=C1C(c2c(O)[nH]c3ccccc23)=Nc2ccccc21 (centres unmarked)	35.3
Cc1ccc(Nc2nccc(N(C)c3ccc4c(C)n(C)nc4c3)n2)cc1S(N)(=O)=O	106
CNC(=O)c1cc(Oc2ccc(NC(=O)Nc3ccc(Cl)c(C(F)(F)F)c3)cc2)ccn1	108
O=C(Nc1cccc(Nc2cc(Nc3cccc(C(F)(F)F)c3)ncn2)c1)C1CC1	96.1

Block 2
SMILES: CC(C)S(=O)(=O)c1ccc2nccc(Nc3ccc4sc(C5CCCC5)nc4c3)c2c1.Cl
Observed: kinase activity
Action: inhibitor
Tested at: 1 µM
target	remaining activity
Death-associated protein kinase 2 (DAPK2, Homo sapiens, UniProt Q9UIK4)	98%
Serine/threonine-protein kinase Nek11 (NEK11, Homo sapiens, UniProt Q8NG66)	91%
Receptor-interacting serine/threonine-protein kinase 1 (RIPK1, Homo sapiens, UniProt Q13546)	83%
Serine/threonine-protein kinase pim-3 (PIM3, Homo sapiens, UniProt Q86V86)	98%
Serine/threonine-protein kinase 17B (STK17B, Homo sapiens, UniProt O94768)	95%
RAC-beta serine/threonine-protein kinase (AKT2, Homo sapiens, UniProt P31751)	105%
Interleukin-1 receptor-associated kinase 1 (IRAK1, Homo sapiens, UniProt P51617)	94%
Receptor tyrosine-protein kinase erbB-4 (ERBB4, Homo sapiens, UniProt Q15303)	78%
Serine/threonine-protein kinase B-raf (BRAF, Homo sapiens, UniProt P15056)	86%
Tyrosine-protein kinase JAK1 (JAK1, Homo sapiens, UniProt P23458)	104%
Serine/threonine-protein kinase VRK1 (VRK1, Homo sapiens, UniProt Q99986)	89%
Casein kinase I isoform gamma-2 (CSNK1G2, Homo sapiens, UniProt P78368)	104%

Block 3
SMILES: C[C@H]1CC[C@H](n2c3cnccc3c3cnc(Nc4ccc5c(n4)CCN(C(=O)CO)C5)nc32)CC1
Observed: cell-free assay
Tested at: 1 µM
target	remaining signal
Serine/threonine-protein kinase 38 (STK38, Homo sapiens, UniProt Q15208)	82%
Dual specificity mitogen-activated protein kinase kinase 4 (MAP2K4, Homo sapiens, UniProt P45985)	5.8%
Calcium/calmodulin-dependent protein kinase kinase 1 (CAMKK1, Homo sapiens, UniProt Q8N5S9)	40%
Serine/threonine-protein kinase ICK (CILK1, Homo sapiens, UniProt Q9UPZ9)	7.7%
Calcium/calmodulin-dependent protein kinase type IV (CAMK4, Homo sapiens, UniProt Q16566)	100%
Epidermal growth factor receptor (EGFR, Homo sapiens, UniProt P00533, T790M)	61%
Mitogen-activated protein kinase 4 (MAPK4, Homo sapiens, UniProt P31152)	90%
Protein kinase C eta type (PRKCH, Homo sapiens, UniProt P24723)	100%
Serine/threonine-protein kinase ULK2 (ULK2, Homo sapiens, UniProt Q8IYT8)	74%
Death-associated protein kinase 2 (DAPK2, Homo sapiens, UniProt Q9UIK4)	71%

Block 4
SMILES: CC(C)(O)c1cncc(-c2nc3ccc(F)cc3n2C2CC2)c1
Method: competition with immobilised ligand
Tested at: 1 µM
target	observed	remaining binding
Mitogen-activated protein kinase kinase kinase 3 (MAP3K3, Homo sapiens, UniProt Q99759)	cell-free assay	99%
Mitogen-activated protein kinase kinase kinase 1 (MAP3K1, Homo sapiens, UniProt Q13233)	cell-free assay	100%
Serine/threonine-protein kinase 16 (STK16, Homo sapiens, UniProt O75716)	cell-free assay	100%
Tyrosine-protein kinase TXK (TXK, Homo sapiens, UniProt P42681)	binding	92%
MAP/microtubule affinity-regulating kinase 4 (MARK4, Homo sapiens, UniProt Q96L34)	cell-free assay	100%
Myosin light chain kinase family member 4 (MYLK4, Homo sapiens, UniProt Q86YV6)	cell-free assay	100%
Serine/threonine-protein kinase SBK1 (SBK1, Homo sapiens, UniProt Q52WX2)	cell-free assay	100%
Serine/threonine-protein kinase SIK2 (SIK2, Homo sapiens, UniProt Q9H0K1)	cell-free assay	100%
Ribosomal protein S6 kinase alpha-4, N-terminal kinase domain (RPS6KA4, Homo sapiens, UniProt O75676)	cell-free assay	91%

A few entries again (block 3):
target	remaining signal
Epidermal growth factor receptor (EGFR, Homo sapiens, UniProt P00533, T790M)	61%
Mitogen-activated protein kinase 4 (MAPK4, Homo sapiens, UniProt P31152)	90%
Protein kinase C eta type (PRKCH, Homo sapiens, UniProt P24723)	100%
